Results collected from several papers.
Lines come from different studies, so protocols differ. ± gives the spread as reported.
4'-phosphopantetheinyl transferase PptT: 4'-phosphopantetheinyl transferase PptT (Mycobacterium tuberculosis, UniProt O33336)
CNR1 I267L/L193I/L359V: Cannabinoid receptor 1 (CNR1, Homo sapiens, UniProt P21554, I267L/L193I/L359V)

| SMILES | target or system | assay | system | setting | how to read | measurement | result |
| --- | --- | --- | --- | --- | --- | --- | --- |
| Cc1nc(=O)c2cc(CN(C)c3ccc(C(=O)NCCC[S+]([O-])c4ccccc4O)s3)ccc2[nH]1 (stereo not drawn) | 4'-phosphopantetheinyl transferase PptT | enzyme activity, inhibitor, fluorescence polarization | – | – | – | Hill slope | 1.1 |
| CCN(Cc1ccccc1)C(=O)CCc1nc(CN2CCN(C(=O)Cc3ccc(OC)c(OC)c3)CC2)no1 | Voltage-gated potassium channel, KQT; KCNQ2(Kv7.2)/KCNQ3(Kv7.3) (KCNQ3/KCNQ2, Homo sapiens, UniProt O43525+O43526) | potassium current, opener, whole-cell patch clamp | CHO stable | 300 nM, -10 mV | – | current density | 50.1 ± 7.05 pA/pF |
| CCCCCn1cc(C(=O)c2ccc3c(c2)CC(C)(C)C3)c2ccccc21 | CNR1 I267L/L193I/L359V | Gαi1 engagement, agonist, BRET | – | – | baseline: reference agonist at wild-type CB1 | Emax | 88.9 ± 1.9% |
| O=S(=O)(O)CCOCC1CSSCC(COCCS(=O)(=O)O)SS1 (stereo not drawn) | DNA-binding response regulator MtrA, C-terminal domain (mtrA, Mycobacterium tuberculosis, UniProt P9WGM7) | binding, LSPR | – | – | – | koff | 0.027 ± 0.00075 s⁻¹ |
| CC(C)C[C@H](NC(=O)[C@H](Cc1ccccc1)NC(=O)CNC(=O)CNC(=O)[C@@H](N)Cc1ccc(O)cc1)C(=O)O | – | K+ current, agonist, photo-uncaging | rat locus coeruleus neurons | concentration not given, dendritic currents | – | current amplitude | 59.6 ± 4.3 pA |
| Cc1nc(=O)c2cc(CN(C)c3ccc(C(=O)NCc4nsc(=O)[nH]4)s3)ccc2[nH]1 | 4'-phosphopantetheinyl transferase PptT | enzyme activity, inhibitor, fluorescence polarization | – | – | – | Hill slope | 1.4 |
| CCCCCn1cc(C(=O)c2cccc3c2CC(C)(C)C3)c2ccccc21 | Cannabinoid receptor 1 (CNR1, Homo sapiens, UniProt P21554, L193I) | Gαi1 engagement, agonist, BRET | – | – | baseline: reference agonist at wild-type CB1 | Emax | 83.6 ± 3% |
| CC(C)C[C@H](NC(=O)[C@H](Cc1ccccc1)NC(=O)CNC(=O)CNC(=O)[C@@H](N)Cc1ccc(OC(C(=O)O)c2ccccc2[N+](=O)[O-])cc1)C(=O)O (stereo partly drawn) | rat locus coeruleus neurons | K+ current, agonist | – | concentration not given | – | outward current amplitude | 5.6 ± 4 pA |
| Cc1nc(=O)c2cc(CN(C)c3ccc(C(=O)NCCCS(N)(=O)=O)s3)ccc2[nH]1 | 4'-phosphopantetheinyl transferase PptT | enzyme activity, inhibitor, fluorescence polarization | – | – | – | Hill slope | 1 |
| CCOC(=O)C1C(OC(c2ccc(Cl)cc2)c2ccc(Cl)cc2)CC2CCC1N2C (single isomer, unassigned) | Alpha-2A adrenergic receptor (ADRA2A, Homo sapiens, UniProt P08913) | binding, radioligand displacement | – | inactive if below 75% at 10000 nM, together with: [3H]MK-912 | – | Ki | inactive |
| Cc1nc(=O)c2cc(CN(C)c3ccc(C(=O)N4CCc5ccc(C(=O)O)cc5C4)s3)ccc2[nH]1 | 4'-phosphopantetheinyl transferase PptT | enzyme activity, inhibitor, fluorescence polarization | – | – | – | Hill slope | 1 |
| CCCCCn1cc(C(=O)c2cccc3ccccc23)c2ccccc21 | CNR1 I267L/L193I/L359V | Gαi1 engagement, agonist, BRET | – | – | baseline: reference agonist at wild-type CB1 | Emax | 149 ± 1.5% |

Repeated from above:
| SMILES | target or system | assay | system | setting | how to read | measurement | result |
| --- | --- | --- | --- | --- | --- | --- | --- |
| CCOC(=O)C1C(OC(c2ccc(Cl)cc2)c2ccc(Cl)cc2)CC2CCC1N2C (single isomer, unassigned) | Alpha-2A adrenergic receptor (ADRA2A, Homo sapiens, UniProt P08913) | binding, radioligand displacement | – | inactive if below 75% at 10000 nM, together with: [3H]MK-912 | – | Ki | inactive |
